# Assay results of several laboratories.
# Each numbered part is a random draw from the data of one study; scales do not carry over between parts.
# Chain of UniProt Q9UPZ9 (whole entry, looked up): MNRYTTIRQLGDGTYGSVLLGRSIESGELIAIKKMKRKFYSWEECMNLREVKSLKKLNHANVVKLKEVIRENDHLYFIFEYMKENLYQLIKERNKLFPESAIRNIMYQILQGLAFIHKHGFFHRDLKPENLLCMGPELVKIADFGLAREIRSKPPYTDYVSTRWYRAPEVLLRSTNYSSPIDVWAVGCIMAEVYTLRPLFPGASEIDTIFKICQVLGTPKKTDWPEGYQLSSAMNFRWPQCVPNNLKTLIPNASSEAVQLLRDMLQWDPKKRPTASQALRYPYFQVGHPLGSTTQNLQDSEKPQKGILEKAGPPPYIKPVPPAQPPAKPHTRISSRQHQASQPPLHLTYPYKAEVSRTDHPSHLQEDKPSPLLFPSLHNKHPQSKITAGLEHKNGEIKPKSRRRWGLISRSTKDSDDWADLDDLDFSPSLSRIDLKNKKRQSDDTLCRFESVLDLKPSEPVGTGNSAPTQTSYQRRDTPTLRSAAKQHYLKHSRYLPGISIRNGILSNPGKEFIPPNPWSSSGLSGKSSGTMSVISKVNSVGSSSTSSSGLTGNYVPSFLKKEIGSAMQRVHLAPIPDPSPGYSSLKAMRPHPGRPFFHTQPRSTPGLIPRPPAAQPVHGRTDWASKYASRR
# Chain of UniProt P07947 (whole entry, looked up): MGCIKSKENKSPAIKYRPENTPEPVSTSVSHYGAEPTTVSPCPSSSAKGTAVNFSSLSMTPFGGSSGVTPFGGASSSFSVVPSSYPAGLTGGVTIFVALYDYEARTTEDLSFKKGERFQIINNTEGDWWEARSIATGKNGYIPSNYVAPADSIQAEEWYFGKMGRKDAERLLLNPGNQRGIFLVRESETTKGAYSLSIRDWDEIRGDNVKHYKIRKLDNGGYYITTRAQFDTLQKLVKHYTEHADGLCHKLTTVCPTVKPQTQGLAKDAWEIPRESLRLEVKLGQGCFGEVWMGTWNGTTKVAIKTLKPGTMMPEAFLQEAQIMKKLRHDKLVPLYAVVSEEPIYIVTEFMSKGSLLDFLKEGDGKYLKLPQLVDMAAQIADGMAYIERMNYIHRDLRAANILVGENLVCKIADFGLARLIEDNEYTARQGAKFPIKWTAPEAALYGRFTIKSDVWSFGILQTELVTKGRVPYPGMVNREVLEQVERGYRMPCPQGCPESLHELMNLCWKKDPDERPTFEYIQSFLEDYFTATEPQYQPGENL
# Chain of UniProt P51812 (whole entry, looked up): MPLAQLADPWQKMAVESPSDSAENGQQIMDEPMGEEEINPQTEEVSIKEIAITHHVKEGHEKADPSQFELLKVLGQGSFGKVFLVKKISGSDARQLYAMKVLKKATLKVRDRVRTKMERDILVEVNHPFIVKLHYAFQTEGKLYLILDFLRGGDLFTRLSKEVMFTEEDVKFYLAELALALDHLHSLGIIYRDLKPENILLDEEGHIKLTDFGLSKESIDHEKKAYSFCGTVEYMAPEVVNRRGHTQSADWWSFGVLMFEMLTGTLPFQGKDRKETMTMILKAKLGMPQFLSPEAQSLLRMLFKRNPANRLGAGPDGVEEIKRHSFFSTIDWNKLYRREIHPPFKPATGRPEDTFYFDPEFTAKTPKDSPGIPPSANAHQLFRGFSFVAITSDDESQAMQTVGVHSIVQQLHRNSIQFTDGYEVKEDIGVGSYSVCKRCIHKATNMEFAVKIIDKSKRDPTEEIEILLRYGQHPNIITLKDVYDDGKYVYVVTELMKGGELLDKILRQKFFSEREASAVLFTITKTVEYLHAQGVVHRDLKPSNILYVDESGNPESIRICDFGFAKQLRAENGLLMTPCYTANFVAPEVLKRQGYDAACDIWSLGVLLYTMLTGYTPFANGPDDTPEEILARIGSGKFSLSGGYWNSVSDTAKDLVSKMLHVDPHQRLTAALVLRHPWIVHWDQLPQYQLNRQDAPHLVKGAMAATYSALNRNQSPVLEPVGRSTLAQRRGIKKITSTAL

# Series 1 — technique: RNAcompete; molecule type: RNA; sample: in vitro; tested at: 20 nM; setting: 7-mer, probes averaged, single round; relative to: mean of 7-mers; direction: higher = stronger binding
# Target: PABPC1L2, full length, GST fusion (mouse, UniProt A0ABA7IW68)
# Residues (chain): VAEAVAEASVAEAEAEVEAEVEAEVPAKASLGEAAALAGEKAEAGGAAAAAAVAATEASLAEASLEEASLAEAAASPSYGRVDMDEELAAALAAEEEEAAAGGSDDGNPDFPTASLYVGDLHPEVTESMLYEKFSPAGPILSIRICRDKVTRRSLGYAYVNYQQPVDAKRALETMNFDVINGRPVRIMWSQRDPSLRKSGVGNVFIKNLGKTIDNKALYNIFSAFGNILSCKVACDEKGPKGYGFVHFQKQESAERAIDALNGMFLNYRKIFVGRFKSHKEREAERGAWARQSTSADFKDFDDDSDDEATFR
Strand,7-mer Z-score
GCUUUCC,-0.38
GGCCUUU,-0.327
GCCUUUC,-0.489
UAGUUUG,-0.452
AGUUACG,-0.139
ACCUAUU,-0.271
AACCACU,-0.0536
UGACGUG,-0.128

# Series 2 — technique: RNA Bind-n-Seq; molecule type: RNA; sample: in vitro; tested at: 20 nM; setting: 6-mer, flanks averaged, single round; with: 150 mM LiCl; relative to: input library; direction: higher = stronger binding
# Target: TAR DNA-binding protein 43, full length, His tag (TARDBP, Homo sapiens, UniProt Q13148, residues 1-414)
Strand,6-mer enrichment (R)
AAUCAA,0.816
GGUGUU,1.44
CGCGUC,0.92
CAGUGG,1.08
CGUCGG,1.11
CAGUGA,0.918
CGAAUG,1
UUAGGC,0.937

# Series 3 — observed: enzyme activity; mode: inhibitor; tested at: 0.5 µM; relative to: control
# Target: Serine/threonine-protein kinase NLK (NLK, Homo sapiens, UniProt Q9UBE8)
# Construct (Q9UBE8 1-527): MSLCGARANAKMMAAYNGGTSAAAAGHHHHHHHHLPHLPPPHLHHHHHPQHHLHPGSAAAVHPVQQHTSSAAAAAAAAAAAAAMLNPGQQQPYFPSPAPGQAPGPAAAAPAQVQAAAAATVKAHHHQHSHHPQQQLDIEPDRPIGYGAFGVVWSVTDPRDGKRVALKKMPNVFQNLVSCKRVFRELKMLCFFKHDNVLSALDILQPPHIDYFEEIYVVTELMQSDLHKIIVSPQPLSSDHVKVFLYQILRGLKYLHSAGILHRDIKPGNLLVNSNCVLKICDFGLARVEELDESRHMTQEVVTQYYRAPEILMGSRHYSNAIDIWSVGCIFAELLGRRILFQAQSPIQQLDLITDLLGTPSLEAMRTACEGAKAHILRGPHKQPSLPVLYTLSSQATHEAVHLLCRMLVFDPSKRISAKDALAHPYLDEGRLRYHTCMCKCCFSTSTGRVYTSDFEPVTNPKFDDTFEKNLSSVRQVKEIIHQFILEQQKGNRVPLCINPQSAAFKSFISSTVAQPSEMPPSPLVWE
SMILES,remaining activity
N#CC(C#N)=C(N)/C(C#N)=C/c1ccc(O)cc1,96.7%
O=C1NC(=O)C(c2cn(CCCO)c3ncccc23)=C1c1cnccn1,91.2%
O=C1NC(=O)C(c2cn(CCCn3ccnc3)c3ccccc23)=C1Nc1ccccc1,97%
Cn1c2ccccc2c2c3c(c4c5ccccc5n(CCC#N)c4c21)CNC3=O,57.3%
O=c1c2ccccc2[nH]c(=S)n1CCN1CCC(=C(c2ccc(F)cc2)c2ccc(F)cc2)CC1,99.5%
CO[C@H]1C[C@@H]2CC[C@@H](C)[C@@](O)(O2)C(=O)C(=O)N2CCCC[C@H]2C(=O)O[C@H]([C@H](C)C[C@@H]2CC[C@@H](O)[C@H](OC)C2)CC(=O)[C@H](C)/C=C(\C)[C@@H](O)[C@@H](OC)C(=O)[C@H](C)C[C@H](C)/C=C/C=C/C=C/1C,97.3%
COc1ccc(CNC(=O)Nc2ncc([N+](=O)[O-])s2)cc1,102%
Cn1sc(=O)n(Cc2ccccc2)c1=O,105%
O=C(CCCc1ccc(-c2ccccc2F)cc1)Nc1ccc(O)cc1,101%
C#Cc1cccc(Nc2ncnc3cc(OCCOC)c(OCCOC)cc23)c1,103%
NCCNc1ncc(C(N)=O)c(Nc2cccc(C(F)(F)F)c2)n1,91.9%
Cc1ccc(NC(=O)c2ccc(CN3CCN(C)CC3)cc2)cc1Nc1nc(-c2cccnc2)cs1,106%
Nc1ccc2ncnc(NCCc3ccc(Oc4ccccc4)cc3)c2c1,104%
Cc1nc(-c2ccccc2)c(-c2ccncc2)o1,79.4%
O=C(O)c1ccc2c3c1cccc3c(=O)n1c3ccccc3nc21,96.1%
O=S(=O)(c1cccc2cnccc12)N1CCCNCC1,97.3%

# Series 4 — technique: competition with immobilised ligand; tested at: 1 µM
# Compound: CN1CCN(c2cnc3c(C4CCN(C(=O)c5ccc(OC(F)(F)F)cc5N)CC4)ncnc3c2)CC1
target,test,remaining binding [%]
"Epidermal growth factor receptor (EGFR, Homo sapiens, UniProt P00533, G719S)",cell-free assay,100
"Tyrosine-protein kinase ABL1, phosphorylated (ABL1, Homo sapiens, UniProt P00519, Q252H)",cell-free assay,100
"Ribosomal protein S6 kinase alpha-3, N-terminal kinase domain (RPS6KA3, Homo sapiens, UniProt P51812)",cell-free assay,85
"Serine/threonine-protein kinase NLK (NLK, Homo sapiens, UniProt Q9UBE8)",cell-free assay,100
"Tyrosine-protein kinase Yes (YES1, Homo sapiens, UniProt P07947)",cell-free assay,100
"Serine/threonine-protein kinase ICK (CILK1, Homo sapiens, UniProt Q9UPZ9)",binding,100

# Repeated from above (series 3):
SMILES,remaining activity
Cc1ccc(NC(=O)c2ccc(CN3CCN(C)CC3)cc2)cc1Nc1nc(-c2cccnc2)cs1,106%
COc1ccc(CNC(=O)Nc2ncc([N+](=O)[O-])s2)cc1,102%
